Measurements collected from several papers.
Each line is one published result; not all experiments were run side by side.
Target: Casein kinase I isoform gamma-3 (CSNK1G3, Homo sapiens, UniProt Q9Y6M4)

Structure (SMILES)	assay	conditions	scale	quantity	value
CNC1C[S+]2CC[S+]3CC[S+](C1)[Ru-4]321([N]=C=S)[n]2c3ccc(OC)cc3c3c4c(c5cc(F)c[n+]1c5c32)C(=O)NC4=O (stereo not shown)	KinomeScan	0.1 µM	relative to: untreated	remaining binding	100%
COc1cc(Nc2nccc(-c3cnn4nc(OC)ccc34)n2)cc(C(F)(F)F)c1	binding, competition with immobilised ligand	1 µM		remaining binding	100%
CCn1cc(C(=O)O)c(=O)c2c(N)c(F)c(NC3CCCCC3)cc21	kinase activity	0.1 µM, together with: ATP at Km		inhibition	3.4%
CC(C)=CC1OC(C)(C)C2C=C3C(=O)C(Cl)=CC(O)C3C3C(O)C4OC4C(=O)C132 (stereo not shown)	cell-free assay, competition with immobilised ligand	10 µM		remaining binding	95%
COc1c(OCCCN2CCOCC2)ccc2c1N=C(NC(=O)c1cnc(N)nc1)N1CCN=C21	kinase activity, inhibitor	1 µM	relative to: untreated control	remaining activity	117%
COc1c(Cl)cccc1Nc1c(-c2ccncc2C#C[C@@]2(C)CCCN2C(=O)/C=C/CN(C)C)[nH]c2c1C(=O)NCC2	cell-free assay, competition with immobilised ligand	3 µM		remaining binding	97%
COc1ccc(NC(=O)Nc2ccc3c(c2)C(=O)N(C(C)CO)CC(C)C(CN(C)Cc2ccc4c(c2)OCO4)O3)cc1 (stereo not shown)	kinase activity, KinaseProfiler	0.03 µM, species human	relative to: control	remaining activity	99%
Cc1nc2c(F)cc(-c3nc(Nc4ccc(CNC(=O)CCCCCCC(=O)NO)cc4)ncc3F)cc2n1C(C)C	enzyme activity, inhibitor	1 µM		inhibition	33%
COc1cc(-n2cc3cc(F)cc(C(N)=O)c3n2)cc(Cl)c1C1CC(O)(CCO)Cc2ccccc21 (stereo not shown)	enzyme activity, inhibitor	10 µM		inhibition	1.34%
O=C(Cc1ccc(OCc2ccccc2)cc1)NC1(C(=O)O)CCN(C(=O)c2ccc(-c3cccc(Cl)c3)cc2)CC1	enzyme activity, inhibitor	10 µM		activity vs control	78%
Cc1cccc(O[C@H]2CCC[C@@H](C(C)CNCc3ccncc3)C2)c1 (relative stereo)	kinase activity, kinome panel screening	1 µM		inhibition	-1%
C=CC(=O)Nc1cccc(-c2cnc3[nH]cc(C(=O)NC(C)(C)C)c3n2)c1	enzyme activity, inhibitor	0.1 µM		inhibition	5%
Cc1cnc2nc1Nc1cccc(c1)COC/C=C/COCc1cc(ccc1OCCN1CCOCC1)N2	cell-free assay	0.1 µM		remaining signal	97%
CN1CCN(Cc2ccc(-c3ccc(CO[C@H]4CCC[C@@H]4NC(=O)c4cc(-c5cnn(C)c5)cnc4N)cc3)cc2)CC1	enzyme activity, inhibitor	0.1 µM		inhibition	-2%
CNC(=O)C[C@H](Cc1ccc(C#N)cc1)NC(=O)c1cc(-c2ccc(CN[C@H](C)c3ccc(C)cc3)o2)ccc1Cl	enzyme activity, inhibitor	1 µM		activity vs control	94%
NC(=O)[C@@H](O)C[C@H]1CCc2sc3ncnc(O[C@H]4CC[C@H](N5CCOCC5)CC4)c3c21	enzyme activity, inhibitor	10 µM		inhibition	8%

Repeated from above:
Structure (SMILES)	assay	conditions	scale	quantity	value
CNC(=O)C[C@H](Cc1ccc(C#N)cc1)NC(=O)c1cc(-c2ccc(CN[C@H](C)c3ccc(C)cc3)o2)ccc1Cl	enzyme activity, inhibitor	1 µM		activity vs control	94%
NC(=O)[C@@H](O)C[C@H]1CCc2sc3ncnc(O[C@H]4CC[C@H](N5CCOCC5)CC4)c3c21	enzyme activity, inhibitor	10 µM		inhibition	8%
